Experimental data from different studies.
A part holds a random share of what one study measured. Positions count from the first letter of the parent shown.

Study 1 — method: RNA Bind-n-Seq; molecule type: RNA; matrix: in vitro; concentration: 365 nM; reference: no-protein control; reading: higher = stronger binding
Target: RNA binding protein fox-1 homolog 2, RRM domain, GST-SBP tag (RBFOX2, Homo sapiens, UniProt O43251-10, residues 100-194)
Setting: natural RNA segment, single round, ends assumed
All sequences stand within: GGGAGUUCUACAGUCCGACGAUC … UGGAAUUCUCGGGUGCCAA
Residues (chain): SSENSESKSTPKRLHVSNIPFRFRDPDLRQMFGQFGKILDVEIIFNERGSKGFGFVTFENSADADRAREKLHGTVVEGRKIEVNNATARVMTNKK
| Sequence | RBNS enrichment (R) |
| --- | --- |
| CAAAGCAAAAGCCCAGUUGGUCAAAGCACAAAAGGCAGCAGCCGCAGCAGCUGCUGCAGCUGCUGCAGCCGCCUCAGUUGGAGGGACCAUUCCGGGACCUGGCCCUGGGG | 0.348 |
| UGAUGUUUGAUCGGAUGAAGAACCAGAACCAGAAGAGAGGAUGCACGGUCCUCGCUAGGGGCCCCAUGUCACCUGCAUCAGGACUAUUGGCACUCACUAGCUGCCCCUAC | 2.44 |
| AAAGCCAGUUCCUAAAACUAAAACUCCAUUCUAGUCUUGGGAAGAAAAGUUUCUACUCAGAACUGGGGAAGGAGUGGAACUUAUGACUUGGGCCUCUAGGCUGUCUCUGU | 0.425 |
| CGGCUUGUGAUCUGAAAAGUUCUCUAGGGUACCCUGGUUUUUGAAAUAUGCCUUCCUGCUGAGCUGAAGUCUUUCAUUCCACUUCACUGGGGGAGCAGCUGAGGCUUGGG | 0.518 |
| UAAGUUUUUUUUAAAAAGCCUGUGUAUUUAUUUUAGAAUCAUGUUUUUCUGUAUAUUAACUUGGGGGAUAUCGUUAAUAUUUAGGAUAUAAGAUUUGAGGUCAGCCAUCU | 4.29 |
| UCAGGCUACGGGCUGCCUGAGUGGAAACCUGGGAUGGUGGAGAAUUCCCAAGCCACAGCCCUUUUGUCUCGGGGAACUCCCUUCUUCACAGAGAAGGAGGUGGGGGCUGU | 1.01 |
| ACCUCCAGCUGACCAUGCAUGCCACGUGGCUGGCUGGGUCCUCUGCCCUCUCUGGAGUUUGCCUCCCCCAGCCCCCUCCCCAUCAAUAAAACUCUGUUUACAACCACCGG | 3.43 |
| CAAGCACUUGUGGGUUUUUGUUUUGUUUUUCAUUCAGUCUUACGAAUACUUUUGCCCUUUGAUUAAAGACUCCAGUUAAAAAAAAUUUUAAUGAAGAAAGUGGAAAACAA | 0.992 |

Study 2 — method: DHFR PCA, deep sequencing; matrix: yeast; added: (+)-ABA 58 µM; reference: wild-type fitted maximum; reading: higher = stronger binding
Target: ABI1, truncated, D143A, DHFR fusion (Arabidopsis thaliana)
Setting: methotrexate growth selection, single substitutions
Starting sequence: PYL1, truncated, DHFR fusion (Arabidopsis thaliana); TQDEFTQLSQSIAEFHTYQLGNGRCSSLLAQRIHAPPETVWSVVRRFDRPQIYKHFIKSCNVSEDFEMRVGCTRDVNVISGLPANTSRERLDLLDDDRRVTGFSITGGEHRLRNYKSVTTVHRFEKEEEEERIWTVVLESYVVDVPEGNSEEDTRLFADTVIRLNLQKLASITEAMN; partner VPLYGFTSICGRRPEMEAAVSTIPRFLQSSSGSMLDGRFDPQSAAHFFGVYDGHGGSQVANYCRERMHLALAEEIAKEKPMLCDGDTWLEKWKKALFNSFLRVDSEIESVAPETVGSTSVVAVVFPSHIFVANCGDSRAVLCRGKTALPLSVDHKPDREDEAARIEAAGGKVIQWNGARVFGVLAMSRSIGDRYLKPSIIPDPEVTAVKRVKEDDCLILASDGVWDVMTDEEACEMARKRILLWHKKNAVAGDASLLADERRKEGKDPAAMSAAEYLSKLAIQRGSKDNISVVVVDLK
| Variant | relative binding score [%] |
| --- | --- |
| E130A | 94.1 |
| S26A | 80.4 |
| E38A | 73.3 |
| S117A | 69.7 |
| A30I | 84.9 |
| D96V | 20 |
| L29S | 52.4 |
| Q2P | 88.9 |
| H55A | 91.9 |
| V145W | 0.103 |
| P83Q | 31.2 |
| A30T | 91.8 |
| I172E | 45.6 |

Study 3 — method: protein binding microarray; molecule type: double-stranded DNA, one strand shown; matrix: in vitro; concentration: not given; reference: not given; reading: higher = stronger binding
Target: Histone acetyltransferase KAT6A, winged helix 2, GST fusion (KAT6A, Homo sapiens, UniProt Q92794, residues 85-181)
Setting: 8-mer, flanks averaged, mean of 2 arrays, mostly near background
Residues (chain): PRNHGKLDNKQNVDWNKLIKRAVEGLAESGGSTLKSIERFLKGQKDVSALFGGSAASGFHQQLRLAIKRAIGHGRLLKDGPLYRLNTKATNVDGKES
| Sequence | E-score |
| --- | --- |
| GCGGCCCC | 0.162 |
| AGTTTACG | 0.0963 |
| AAAAAGTA | 0.0819 |
| ATACATTA | 0.051 |
| CTAAGCGC | 0.0469 |
| GATATGTA | -0.0861 |
| AGACAGCT | -0.117 |
| CGATTCCC | -0.0181 |

Mixed results
| Molecule | target | assay | system | setting | how to read | quantity | value |
| --- | --- | --- | --- | --- | --- | --- | --- |
| PhoQ, residues 284 288 289 292 302 303 SMMNNA | PhoP, residues 12 14 15 18 19 LHHSG (Escherichia coli, UniProt P23836) | Sort-seq, item: YFP reporter | E. coli | PhoQ-PhoP variant library, added: 10 µM Mg2+ | reference: high Mg2+ state, higher = stronger signaling | fold induction | 2.37 |

Repeated from above (study 3):
| Sequence | E-score |
| --- | --- |
| GATATGTA | -0.0861 |
| ATACATTA | 0.051 |
| GCGGCCCC | 0.162 |
| AAAAAGTA | 0.0819 |
